# Published values collected from several papers.
# Protocols differ between the studies behind these lines. Several values in a cell are separate wells, animals, samples, runs or records.
# Rac GTPase-activating protein 1: Rac GTPase-activating protein 1 (Homo sapiens, UniProt Q9H0H5)
# HDAC7: Histone deacetylase 7 (HDAC7, Homo sapiens, UniProt Q8WUI4)
# AVPR1A: Vasopressin V1a receptor (AVPR1A, Homo sapiens, UniProt P37288)
# GABBR1: Gamma-aminobutyric acid type B receptor subunit 1 (GABBR1, Homo sapiens, UniProt Q9UBS5)
# PTGS1: Prostaglandin G/H synthase 1 (PTGS1, Homo sapiens, UniProt P23219)
# USP14: Ubiquitin carboxyl-terminal hydrolase 14 (USP14, Homo sapiens, UniProt P54578)
# Rab GDP dissociation inhibitor beta with Rab1A: Rab GDP dissociation inhibitor beta, with Rab1A (Homo sapiens, UniProt P50395)
# ELANE: Neutrophil elastase (ELANE, Homo sapiens, UniProt P08246)
# F12: Coagulation factor XII (F12, Homo sapiens, UniProt P00748)
SMILES,target,assay,test system,conditions,how to read,inhibition
Cc1ccc(C(C2=C(O)CC(C)(C)CC2=O)C2=C(O)CC(C)(C)CC2=O)o1,Rac GTPase-activating protein 1,"enzyme activity, inhibitor, ADP detection",,20 µM,,25.1%
CC[C@H](C)[C@@H]1NC(=O)[C@H](Cc2ccccc2C(F)(F)F)NC(=O)CCSCc2cccc(n2)CSCCCNC(=O)[C@H](CCCCCC(=O)NO)NC1=O,HDAC7,"enzyme activity, inhibitor, fluorogenic",,30 µM,,60%
"CC(=O)C12NC(C)(C)CC1(C)C(=O)C1=C2c2c(c3c4n2C(C)(C)CC2=C4C4(CC(C)(C)NC(C)(C4)C2=O)CC3(C)C)C(=O)C(C)(C)N1 (single isomer, unassigned; (+))","Glutamate NMDA receptor; GRIN1/GRIN2B (GRIN1/GRIN2B, Homo sapiens, UniProt Q05586+Q13224)","ion current, antagonist, whole-cell patch clamp",HEK293T,10 µM,,2.86%
CO[C@@H](C)c1c(NC(=O)Nc2cnc(-n3nccn3)c(C(F)(F)F)c2)cnc2sc(C)nc12,AVPR1A,"ligand displacement, radioligand",,10 µM,,10.8%
N=C(N)NCCCC(NC(=O)C(CC(=O)NO)Cc1ccc2ccccc2c1)C(=O)NC(Cc1c[nH]c2ccccc12)C(=O)NC(CCC(=O)O)C(N)=O (stereo not shown),"Matrix metalloproteinase-9 (MMP9, Homo sapiens, UniProt P14780)",,,1 µM,,3%
CN(C)C/C=C/C(=O)Nc1ccc2nc(NCCCCCN(C)C)nc(NCCCCCCN(C)C)c2c1,"Histone-lysine N-methyltransferase SMYD3 (SMYD3, Homo sapiens, UniProt Q9H7B4)","enzyme activity, inhibitor, radiometric",,10 µM,,2%
CC(C)(C)c1ccccc1OS(=O)(=O)Oc1cccc(C(=O)NO)c1,HDAC7,"enzyme activity, inhibitor, fluorescence",,10 µM,,16%
C[Si](C)(C)C[C@H](CN)CC(=O)O,GABBR1,"binding, radioligand binding",,"250 µM, with: [3H]CGP-54626",,-9%
O=C(NCCCCc1ccccc1)n1c(=O)oc2cc(-c3ccc(F)cc3)ccc21,PTGS1,"enzyme activity, inhibitor",,10 µM,,-6.1%
O=C1NNC(c2ccccc2)=N/C1=C\c1ccc(Cl)cc1,USP14,"enzyme activity, inhibitor",,17 µM,,69%
O=C1c2sc(-c3ccc(N4CCC(CO)CC4)nc3F)nc2CCN1c1cccnc1,AVPR1A,"ligand displacement, radioligand",,1 µM,,-2%
Nc1ccc2c(c1)OC1(CCCCC1)O2,Rac GTPase-activating protein 1,"GAP activity, malachite green phosphate",,"concentration not given, orthogonal retest",,30.1%
C=CC(=O)N1Cc2nc(-c3cc(-c4cc(Cl)cnc4Cl)c(F)cc3F)n(-c3ccncn3)c2C1,"5'-AMP-activated protein kinase catalytic subunit alpha-1, with beta2, gamma1 (PRKAA1, Homo sapiens, UniProt Q13131)",kinome panel,,1 µM,,-1.8%
N#C/C(=C\c1ccc(N2CCOCC2)o1)C(=O)NCC1CCCO1 (stereo not shown),USP14,"enzyme activity, inhibitor",,17 µM,,17%
CN(Cc1ccc(/C=C/C(=O)NO)cc1)CC12CC3CC(CC(C3)C1)C2,human 5-HT7 receptor,agonist radioligand binding,,0.05 µM,,11%
Cn1ccc2cc(-n3c(=O)[nH]c4sc5c(c4c3=O)CCCC5)ccc21,"Neuronal acetylcholine receptor; alpha3/beta4 (Homo sapiens, UniProt P30926+P32297)","cell-free assay, radioligand",,10 µM,,3%
Cc1cc(Cl)cc(-c2ccnc3cc(CN4C(=O)C5C(C4=O)C5(C)C)sc23)c1C[C@@H]1CNCCO1 (stereo partly shown),"Ubiquitin carboxyl-terminal hydrolase 7 (USP7, Homo sapiens, UniProt Q93009, V517F)","enzyme activity, inhibitor",,5 µM,,104% and 108%
Clc1ccc(NCc2ccc(Br)cc2)cc1,Rac GTPase-activating protein 1,"enzyme activity, inhibitor, ADP detection",,10 µM,,99.2%
O=C(Nc1ccc(C(F)F)cc1)[C@H](CC1CCCCC1)Nc1nn2c(=O)ccnc2s1,"Serine/threonine-protein phosphatase 5 (Homo sapiens, UniProt P53041)","enzyme activity, inhibitor",,10 µM,,-6%
O=c1cnnc(N/N=C/C=C/c2ccccc2)[nH]1,USP14,"enzyme activity, inhibitor",,17 µM,,3%
C/C=C/C(=O)Nc1ccc2nc(NCCCCCN(C)C)nc(NCCCCCCN(C)C)c2c1,"Histone-lysine N-methyltransferase SETD7 (SETD7, Homo sapiens, UniProt Q8WTS6)","enzyme activity, inhibitor, radiometric",,50 µM,,62%
C[Si]1(C[C@H](CN)CC(=O)O)CCCC1,GABBR1,"binding, radioligand binding",,"70 µM, with: [3H]CGP-54626",,8%
COc1cc(OC)c(F)c(/C=C/c2cnc3ccn(S(=O)(=O)c4cn(CCF)cn4)c3n2)c1F,"Platelet-derived growth factor receptor alpha (PDGFRA, Homo sapiens, UniProt P16234)",,,1000 nM,,0%
COc1ncc2nc(C)n(Cc3ncc(S(N)(=O)=O)cc3F)c2c1-c1ccccc1,PTGS1,"enzyme activity, inhibitor",,"10 µM, safety panel",,0.0998%
O=C(O)C(=CC(=O)c1ccccc1)Nc1ccccc1,USP14,"enzyme activity, inhibitor",,17 µM,,24%
O=C(O)C1Nc2ccc(Cl)cc2C2C=CCC12 (stereo not shown),Rac GTPase-activating protein 1,"enzyme activity, inhibitor, ADP detection",,10 µM,,73.2%
CC(C)N1CCCc2cc(CN)ccc21,USP14,"enzyme activity, inhibitor",,17 µM,,57%
O=C(O)C1Nc2ccc(Br)cc2C2C=CCC12 (stereo not shown),Rac GTPase-activating protein 1,"enzyme activity, inhibitor, ADP detection",,20 µM,,36.3%
CCc1nc2ccc(Cl)cn2c1C(=O)NC/C=C(\C)CC/C=C(\C)CCC=C(C)C,"Cytochrome b, in bc1 complex (COB, Candida albicans, UniProt P0C8L0)",cytochrome c reduction,,10 and 1 µM,,no inhibition
O=S(=O)(Nc1nnc(Cc2ccccc2)s1)c1ccc(Br)cc1,"srtA (Staphylococcus aureus, UniProt Q2FV99)","enzyme activity, inhibitor",,200 µM,,56.3%
CNC(=O)C[C@H](Cc1ccc(C#N)cc1)NC(=O)c1cc(-c2ccc(CN[C@H](C)c3ccc(C)cc3)o2)ccc1Cl,"Kappa-type opioid receptor (Oprk1, Rattus norvegicus, UniProt P34975)","agonist response, antagonist",,10 µM,baseline: agonist control,22%
C=CCNC(=O)c1ccc2nc(-c3ccco3)c(-c3ccco3)nc2c1,USP14,"enzyme activity, inhibitor",,17 µM,,62%
CCn1cc(C(=O)O)c(=O)c2c(N)c(F)c(NC3CCCCC3)cc21,"Serine/threonine-protein kinase greatwall (MASTL, Homo sapiens, UniProt Q96GX5)",kinase activity,,"0.1 µM, with: ATP at Km",,-4.9%
Cc1cc(C)cc(COc2cc3c(cc2OCc2cc(C)cc(C)c2)C2CC(O)CC(C)N2CC3)c1 (stereo not shown),Rab GDP dissociation inhibitor beta with Rab1A,"GDI2-Rab1A interaction, NanoLuc complementation",,6.25 µM,,85.4%
COc1ccc(C[C@H](NC(=O)Cc2cccc(Oc3ccccc3)c2)C(=O)N[C@@H](Cc2c[nH]c3ccccc23)C(=O)NCc2ccc(C)cc2)cc1OC,ELANE,"enzyme activity, inhibitor",,100 µM,,-7%
Cn1c(CNc2ccccc2Cl)nc2ccccc21,Rac GTPase-activating protein 1,"GAP activity, malachite green phosphate",,"concentration not given, orthogonal retest",,32.6%
CCSc1nnc2c(n1)OC(C(=O)c1ccccc1)Nc1ccccc1-2 (stereo not shown),USP14,"enzyme activity, inhibitor",,17 µM,,12%
"Cc1cc(C)cc(COc2cc3c(cc2OCc2cc(C)cc(C)c2)[C@@H]2C[C@](O)(Cc4cn(Cc5ccc(F)cc5)nn4)C[C@H](C)N2CC3)c1 (single isomer, unassigned)",Rab GDP dissociation inhibitor beta with Rab1A,"GDI2-Rab1A interaction, NanoLuc complementation",,6.25 µM,,90.3%
Cc1ccc(CNC(=O)C(CCc2ccccc2)NC(=O)C(NC(=O)c2ccc(OCc3ccc(C(C)(C)C)cc3)cc2)C(C)O)cc1 (stereo not shown),F12,"enzyme activity, inhibitor",,100 µM,,36%
COCC(=O)N1CCc2cc(-c3csc(NC(=O)c4cc(OC)cc(OC)c4)n3)ccc21,"Voltage-dependent L-type calcium channel subunit alpha-1C (Cacna1c, Rattus norvegicus, UniProt P22002)","ligand displacement, radioligand",,10 µM,,20%
Cc1ccc(CNC(=O)[C@H](CCc2ccccc2)NC(=O)[C@H](CC(=O)NCC(C)(C)C)NC(=O)CCc2cccc(F)c2)cc1,F12,"enzyme activity, inhibitor",,100 µM,,32%
Cc1ccc(C)n1-c1ccc(OCC(=O)O)cc1,Rac GTPase-activating protein 1,"GAP activity, malachite green phosphate",,"concentration not given, orthogonal retest",,75.3%
C[C@@H](O)[C@H](NC(=O)c1ccc(OCc2ccccc2)cc1)C(=O)N[C@@H](CCc1ccccc1)C(=O)NCc1ccccc1Cl,ELANE,"enzyme activity, inhibitor",,100 µM,,-1%
COC(=O)c1sc2nc[nH]c(=O)c2c1CC(=O)O,USP14,"enzyme activity, inhibitor",,17 µM,,43%
CC(C)(C)CNC(=O)C[C@H](NC(=O)CCc1ccccc1)C(=O)N[C@@H](Cc1cccnc1)C(=O)NCc1ccccc1Cl,ELANE,"enzyme activity, inhibitor",,100 µM,,1%
Cc1cc(N2CCOCC2)nc2cc(Cl)ccc12,Rac GTPase-activating protein 1,"enzyme activity, inhibitor, ADP detection",,20 µM,,27.5%

# For quick reference, copied from above:
SMILES,target,assay,test system,conditions,how to read,inhibition
C=CCNC(=O)c1ccc2nc(-c3ccco3)c(-c3ccco3)nc2c1,USP14,"enzyme activity, inhibitor",,17 µM,,62%
CCn1cc(C(=O)O)c(=O)c2c(N)c(F)c(NC3CCCCC3)cc21,"Serine/threonine-protein kinase greatwall (MASTL, Homo sapiens, UniProt Q96GX5)",kinase activity,,"0.1 µM, with: ATP at Km",,-4.9%
Cc1cc(C)cc(COc2cc3c(cc2OCc2cc(C)cc(C)c2)C2CC(O)CC(C)N2CC3)c1 (stereo not shown),Rab GDP dissociation inhibitor beta with Rab1A,"GDI2-Rab1A interaction, NanoLuc complementation",,6.25 µM,,85.4%
